{"data": "Measured values collected from several papers", "note": "Each numbered part is a random draw from the data of one study; scales do not carry over between parts. Positions count from the first letter of the parent shown.", "chain of UniProt A6NDY0 (127-244, looked up)": "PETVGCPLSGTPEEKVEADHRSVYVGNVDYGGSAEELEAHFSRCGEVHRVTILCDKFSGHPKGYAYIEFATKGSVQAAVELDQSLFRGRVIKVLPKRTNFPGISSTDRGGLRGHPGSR", "chain of UniProt Q14012 (whole entry, looked up)": "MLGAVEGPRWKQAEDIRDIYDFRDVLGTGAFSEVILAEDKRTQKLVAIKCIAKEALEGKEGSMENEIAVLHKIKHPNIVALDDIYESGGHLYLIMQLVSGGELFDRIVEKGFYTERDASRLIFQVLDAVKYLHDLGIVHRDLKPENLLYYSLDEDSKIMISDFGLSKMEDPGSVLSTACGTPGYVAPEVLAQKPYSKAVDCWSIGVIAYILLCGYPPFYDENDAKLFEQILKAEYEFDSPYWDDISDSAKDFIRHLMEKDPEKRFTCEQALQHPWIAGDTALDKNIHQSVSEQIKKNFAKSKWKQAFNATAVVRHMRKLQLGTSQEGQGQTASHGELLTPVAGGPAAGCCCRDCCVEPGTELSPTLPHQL", "chain of UniProt Q96RR4 (whole entry, looked up)": "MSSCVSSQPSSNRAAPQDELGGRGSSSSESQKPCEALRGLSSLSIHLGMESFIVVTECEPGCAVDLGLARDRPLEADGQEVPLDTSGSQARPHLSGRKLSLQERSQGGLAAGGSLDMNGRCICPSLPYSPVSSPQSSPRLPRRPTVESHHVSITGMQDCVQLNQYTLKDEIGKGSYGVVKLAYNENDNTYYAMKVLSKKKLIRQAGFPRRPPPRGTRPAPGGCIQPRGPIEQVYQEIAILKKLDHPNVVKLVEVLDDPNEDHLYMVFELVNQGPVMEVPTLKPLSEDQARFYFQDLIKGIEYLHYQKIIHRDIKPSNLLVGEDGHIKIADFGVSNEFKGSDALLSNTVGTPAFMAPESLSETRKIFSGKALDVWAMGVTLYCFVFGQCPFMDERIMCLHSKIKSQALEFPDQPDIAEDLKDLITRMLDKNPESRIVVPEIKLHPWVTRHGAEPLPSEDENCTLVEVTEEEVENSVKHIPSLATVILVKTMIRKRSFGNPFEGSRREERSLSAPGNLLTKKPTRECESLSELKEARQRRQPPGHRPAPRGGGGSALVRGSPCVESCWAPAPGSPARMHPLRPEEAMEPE", "chain of UniProt O75385 (whole entry, looked up)": "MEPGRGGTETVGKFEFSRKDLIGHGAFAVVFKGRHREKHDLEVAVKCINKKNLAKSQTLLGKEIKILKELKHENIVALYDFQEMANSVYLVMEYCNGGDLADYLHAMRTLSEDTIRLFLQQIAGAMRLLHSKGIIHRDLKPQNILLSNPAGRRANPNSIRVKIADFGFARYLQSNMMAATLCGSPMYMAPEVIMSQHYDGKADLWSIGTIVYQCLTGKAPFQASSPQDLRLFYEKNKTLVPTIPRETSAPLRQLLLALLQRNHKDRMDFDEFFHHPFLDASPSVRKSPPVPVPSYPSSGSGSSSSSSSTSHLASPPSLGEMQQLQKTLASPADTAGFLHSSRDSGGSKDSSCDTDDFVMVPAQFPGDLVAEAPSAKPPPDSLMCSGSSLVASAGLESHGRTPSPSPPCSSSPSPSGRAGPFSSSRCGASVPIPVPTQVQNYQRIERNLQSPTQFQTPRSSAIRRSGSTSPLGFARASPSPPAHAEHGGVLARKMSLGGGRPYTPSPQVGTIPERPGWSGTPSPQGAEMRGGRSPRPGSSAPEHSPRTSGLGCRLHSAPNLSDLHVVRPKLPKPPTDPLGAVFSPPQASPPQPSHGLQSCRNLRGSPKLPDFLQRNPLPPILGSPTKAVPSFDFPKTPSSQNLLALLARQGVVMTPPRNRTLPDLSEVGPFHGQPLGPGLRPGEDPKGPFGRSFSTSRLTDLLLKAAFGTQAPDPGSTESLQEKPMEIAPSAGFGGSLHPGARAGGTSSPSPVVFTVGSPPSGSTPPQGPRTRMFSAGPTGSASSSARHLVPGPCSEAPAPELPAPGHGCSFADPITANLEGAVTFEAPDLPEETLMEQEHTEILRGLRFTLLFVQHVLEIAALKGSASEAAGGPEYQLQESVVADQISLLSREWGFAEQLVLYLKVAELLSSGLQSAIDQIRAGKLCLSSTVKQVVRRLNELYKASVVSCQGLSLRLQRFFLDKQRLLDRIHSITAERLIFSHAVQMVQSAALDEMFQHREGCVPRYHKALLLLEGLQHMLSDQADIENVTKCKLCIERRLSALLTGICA", "chain of UniProt O15197 (whole entry, looked up)": "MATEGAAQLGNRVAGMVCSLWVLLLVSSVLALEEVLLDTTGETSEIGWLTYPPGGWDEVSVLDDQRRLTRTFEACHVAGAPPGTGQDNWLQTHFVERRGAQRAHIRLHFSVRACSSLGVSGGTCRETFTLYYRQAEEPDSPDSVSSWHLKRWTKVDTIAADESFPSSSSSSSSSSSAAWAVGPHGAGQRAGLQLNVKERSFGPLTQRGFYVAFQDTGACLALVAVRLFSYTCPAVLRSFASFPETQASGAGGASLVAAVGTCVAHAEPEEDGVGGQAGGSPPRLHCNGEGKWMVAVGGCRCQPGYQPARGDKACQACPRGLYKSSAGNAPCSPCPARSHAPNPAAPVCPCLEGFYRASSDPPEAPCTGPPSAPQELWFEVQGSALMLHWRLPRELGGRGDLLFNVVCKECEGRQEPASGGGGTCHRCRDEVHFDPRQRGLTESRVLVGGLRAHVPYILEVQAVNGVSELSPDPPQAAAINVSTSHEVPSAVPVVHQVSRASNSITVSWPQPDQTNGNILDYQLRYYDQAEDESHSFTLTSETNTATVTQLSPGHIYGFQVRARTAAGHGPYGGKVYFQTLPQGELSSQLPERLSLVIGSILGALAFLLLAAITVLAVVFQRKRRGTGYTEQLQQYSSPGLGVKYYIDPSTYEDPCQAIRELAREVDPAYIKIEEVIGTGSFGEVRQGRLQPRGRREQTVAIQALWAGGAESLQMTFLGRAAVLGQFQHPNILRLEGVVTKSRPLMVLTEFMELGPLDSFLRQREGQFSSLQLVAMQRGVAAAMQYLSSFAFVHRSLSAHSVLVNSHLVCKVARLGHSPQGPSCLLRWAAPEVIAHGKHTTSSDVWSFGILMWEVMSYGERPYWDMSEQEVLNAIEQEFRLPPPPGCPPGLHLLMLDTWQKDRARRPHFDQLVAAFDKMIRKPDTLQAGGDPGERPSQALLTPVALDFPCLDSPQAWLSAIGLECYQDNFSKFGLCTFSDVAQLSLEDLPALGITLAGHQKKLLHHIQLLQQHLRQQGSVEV", "chain of UniProt Q2M2I8 (whole entry, looked up)": "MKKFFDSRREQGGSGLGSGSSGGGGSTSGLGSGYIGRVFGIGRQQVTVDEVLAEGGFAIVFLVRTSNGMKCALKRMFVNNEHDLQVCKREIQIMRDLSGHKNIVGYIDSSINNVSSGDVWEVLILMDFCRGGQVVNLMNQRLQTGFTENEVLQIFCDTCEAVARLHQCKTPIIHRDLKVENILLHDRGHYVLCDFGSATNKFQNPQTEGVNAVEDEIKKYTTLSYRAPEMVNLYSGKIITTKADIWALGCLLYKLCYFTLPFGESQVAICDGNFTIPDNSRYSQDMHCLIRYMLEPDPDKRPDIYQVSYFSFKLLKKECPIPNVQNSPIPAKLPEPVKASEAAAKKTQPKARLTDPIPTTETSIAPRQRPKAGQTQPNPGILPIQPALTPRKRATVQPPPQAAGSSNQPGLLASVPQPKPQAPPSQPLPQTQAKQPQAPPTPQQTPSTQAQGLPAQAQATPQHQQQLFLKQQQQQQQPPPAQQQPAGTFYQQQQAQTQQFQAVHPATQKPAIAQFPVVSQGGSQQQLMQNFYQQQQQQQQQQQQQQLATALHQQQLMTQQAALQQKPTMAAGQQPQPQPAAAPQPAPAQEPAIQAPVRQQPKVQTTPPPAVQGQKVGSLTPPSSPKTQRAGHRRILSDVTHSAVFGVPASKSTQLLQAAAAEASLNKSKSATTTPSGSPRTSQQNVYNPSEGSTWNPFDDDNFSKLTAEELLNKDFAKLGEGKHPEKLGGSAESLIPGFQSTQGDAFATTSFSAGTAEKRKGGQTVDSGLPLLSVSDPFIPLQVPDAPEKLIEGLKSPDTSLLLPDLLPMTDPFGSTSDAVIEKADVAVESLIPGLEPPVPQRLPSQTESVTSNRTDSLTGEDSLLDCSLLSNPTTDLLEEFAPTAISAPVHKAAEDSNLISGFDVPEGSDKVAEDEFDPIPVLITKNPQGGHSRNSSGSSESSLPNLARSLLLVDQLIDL", "chain of UniProt Q13976 (whole entry, looked up)": "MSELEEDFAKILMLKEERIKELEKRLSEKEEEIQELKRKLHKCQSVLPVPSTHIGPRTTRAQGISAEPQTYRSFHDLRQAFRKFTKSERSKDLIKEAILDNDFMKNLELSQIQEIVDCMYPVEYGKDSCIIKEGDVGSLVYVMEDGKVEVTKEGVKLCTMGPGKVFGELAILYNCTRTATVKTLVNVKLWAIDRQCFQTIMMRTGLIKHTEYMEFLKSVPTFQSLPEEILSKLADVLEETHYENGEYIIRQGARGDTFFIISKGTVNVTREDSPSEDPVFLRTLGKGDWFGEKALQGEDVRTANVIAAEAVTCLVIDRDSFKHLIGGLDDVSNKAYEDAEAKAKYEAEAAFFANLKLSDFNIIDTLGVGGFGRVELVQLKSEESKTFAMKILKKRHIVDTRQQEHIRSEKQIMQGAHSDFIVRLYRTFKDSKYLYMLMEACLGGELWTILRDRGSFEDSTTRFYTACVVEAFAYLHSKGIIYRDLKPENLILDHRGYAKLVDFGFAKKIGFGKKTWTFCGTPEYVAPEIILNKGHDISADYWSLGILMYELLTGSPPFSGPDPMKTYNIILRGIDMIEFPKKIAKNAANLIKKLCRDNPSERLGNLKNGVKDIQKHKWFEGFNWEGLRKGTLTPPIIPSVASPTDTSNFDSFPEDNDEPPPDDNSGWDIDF"}
{"data": "Sample 1", "SMILES": "CCOC(=O)c1c(C)[nH]c(/C=C2\\C(=O)Nc3ccccc32)c1C", "effect on": "enzyme activity", "mode": "inhibitor", "concentration": "0.5 µM", "baseline": "control"}
{"target": "Cyclin-dependent kinase 5, with p25 (CDK5, Homo sapiens, UniProt Q00535)", "remaining activity [%]": 92.7}
{"target": "Calcium/calmodulin-dependent protein kinase kinase 2 (CAMKK2, Homo sapiens, UniProt Q96RR4)", "remaining activity [%]": 90.8}
{"target": "cGMP-dependent protein kinase 1, isoform beta (PRKG1, Homo sapiens, UniProt Q13976)", "remaining activity [%]": 92.8}
{"target": "Mitogen-activated protein kinase 9 (MAPK9, Homo sapiens, UniProt P45984)", "remaining activity [%]": 93.9}
{"data": "Sample 2", "SMILES": "COc1ccc2c(c1)O[C@@H](c1ccc(OC)c(OC)c1)C[C@H]2NC(=O)C1(c2ccc3c(c2)OC(F)(F)O3)CC1", "effect on": "cell-free assay", "technique": "competition with immobilised ligand", "concentration": "1 µM"}
{"target": "Phosphatidylinositol 4,5-bisphosphate 3-kinase catalytic subunit alpha isoform (PIK3CA, Homo sapiens, UniProt P42336, C420R)", "remaining binding": "86%"}
{"target": "Cytoplasmic tyrosine-protein kinase BMX (BMX, Homo sapiens, UniProt P51813)", "remaining binding": "91%"}
{"target": "AP2-associated protein kinase 1 (AAK1, Homo sapiens, UniProt Q2M2I8)", "remaining binding": "91%"}
{"target": "Serine/threonine-protein kinase ULK1 (ULK1, Homo sapiens, UniProt O75385)", "remaining binding": "75%"}
{"target": "Ephrin type-B receptor 6 (EPHB6, Homo sapiens, UniProt O15197)", "remaining binding": "61%"}
{"target": "Calcium/calmodulin-dependent protein kinase type 1 (CAMK1, Homo sapiens, UniProt Q14012)", "remaining binding": "100%"}
{"data": "Sample 3", "Substitution": "E125Q", "target": "ABI1, truncated, D143A, DHFR fusion (Arabidopsis thaliana)", "technique": "DHFR PCA, deep sequencing", "matrix": "yeast", "notes": "methotrexate growth selection, single substitutions", "baseline": "wild-type fitted maximum", "direction": "higher = stronger binding", "starting sequence": "PYL1, truncated, DHFR fusion (Arabidopsis thaliana); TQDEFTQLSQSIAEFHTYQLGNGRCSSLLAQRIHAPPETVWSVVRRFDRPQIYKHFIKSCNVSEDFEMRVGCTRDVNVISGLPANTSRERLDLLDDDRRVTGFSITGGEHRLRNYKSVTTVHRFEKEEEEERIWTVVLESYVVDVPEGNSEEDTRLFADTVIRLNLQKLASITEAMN"}
{"added": "(+)-ABA 710 µM", "relative binding score": "111%"}
{"added": "(+)-ABA 0 µM", "relative binding score": "40.5%"}
{"added": "(+)-ABA 17 µM", "relative binding score": "91.5%"}
{"added": "(+)-ABA 0.11 µM", "relative binding score": "46.3%"}
{"added": "(+)-ABA 0.032 µM", "relative binding score": "48.2%"}
{"added": "(+)-ABA 58 µM", "relative binding score": "95.8%"}
{"data": "Further values, each from its own experiment"}
{"Oligonucleotide": "AAAAAAAA (biotin)", "target": "Embryonic polyadenylate-binding protein 2, RRM domain (PABPN1L, Homo sapiens, UniProt A6NDY0, residues 127-244)", "assay": "protein domain microarray", "system": "RNA, in vitro", "conditions": "not given, poly(A) 8-mer RNA, whole probe, immobilized GST-fusion domains, most near background", "how to read": "baseline: GST loading signal, higher = stronger binding", "endpoint": "signal ratio", "value": 16.1}
{"note": "Excerpt of the above (sample 1):"}
{"target": "cGMP-dependent protein kinase 1, isoform beta (PRKG1, Homo sapiens, UniProt Q13976)", "remaining activity [%]": 92.8}
{"target": "Mitogen-activated protein kinase 9 (MAPK9, Homo sapiens, UniProt P45984)", "remaining activity [%]": 93.9}
